{"data": "Assay results pooled from the literature", "Mapk1": "Mitogen-activated protein kinase 1 (Mapk1, Rattus norvegicus, UniProt P63086)", "note": "Numbers after ± are the reported error.", "UniProt P63086, sequence (whole entry, looked up)": "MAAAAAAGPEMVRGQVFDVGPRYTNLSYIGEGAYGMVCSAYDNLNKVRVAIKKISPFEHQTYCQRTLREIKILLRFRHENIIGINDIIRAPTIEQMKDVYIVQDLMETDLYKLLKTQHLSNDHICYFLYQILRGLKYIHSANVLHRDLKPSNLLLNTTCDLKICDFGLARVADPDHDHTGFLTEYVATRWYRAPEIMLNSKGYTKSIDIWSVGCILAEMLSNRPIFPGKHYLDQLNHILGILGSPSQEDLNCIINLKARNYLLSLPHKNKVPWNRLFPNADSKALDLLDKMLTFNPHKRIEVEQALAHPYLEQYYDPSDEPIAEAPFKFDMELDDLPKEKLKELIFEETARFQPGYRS", "UniProt Q08210, sequence (whole entry, looked up)": "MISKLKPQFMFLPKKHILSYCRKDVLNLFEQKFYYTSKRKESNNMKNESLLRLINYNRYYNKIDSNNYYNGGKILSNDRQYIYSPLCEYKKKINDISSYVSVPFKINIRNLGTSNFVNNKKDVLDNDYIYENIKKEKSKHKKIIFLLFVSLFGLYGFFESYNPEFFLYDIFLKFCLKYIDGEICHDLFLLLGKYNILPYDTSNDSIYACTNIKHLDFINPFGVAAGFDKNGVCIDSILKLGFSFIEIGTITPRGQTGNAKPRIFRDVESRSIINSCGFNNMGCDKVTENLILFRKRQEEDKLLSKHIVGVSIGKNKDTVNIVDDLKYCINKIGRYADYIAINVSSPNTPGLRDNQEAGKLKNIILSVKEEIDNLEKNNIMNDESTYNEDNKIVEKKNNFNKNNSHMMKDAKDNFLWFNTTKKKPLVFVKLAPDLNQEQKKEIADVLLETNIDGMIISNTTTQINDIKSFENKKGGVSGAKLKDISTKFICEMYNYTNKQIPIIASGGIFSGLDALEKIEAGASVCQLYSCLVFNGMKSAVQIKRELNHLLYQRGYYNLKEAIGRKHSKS", "UniProt O96028, sequence (whole entry, looked up)": "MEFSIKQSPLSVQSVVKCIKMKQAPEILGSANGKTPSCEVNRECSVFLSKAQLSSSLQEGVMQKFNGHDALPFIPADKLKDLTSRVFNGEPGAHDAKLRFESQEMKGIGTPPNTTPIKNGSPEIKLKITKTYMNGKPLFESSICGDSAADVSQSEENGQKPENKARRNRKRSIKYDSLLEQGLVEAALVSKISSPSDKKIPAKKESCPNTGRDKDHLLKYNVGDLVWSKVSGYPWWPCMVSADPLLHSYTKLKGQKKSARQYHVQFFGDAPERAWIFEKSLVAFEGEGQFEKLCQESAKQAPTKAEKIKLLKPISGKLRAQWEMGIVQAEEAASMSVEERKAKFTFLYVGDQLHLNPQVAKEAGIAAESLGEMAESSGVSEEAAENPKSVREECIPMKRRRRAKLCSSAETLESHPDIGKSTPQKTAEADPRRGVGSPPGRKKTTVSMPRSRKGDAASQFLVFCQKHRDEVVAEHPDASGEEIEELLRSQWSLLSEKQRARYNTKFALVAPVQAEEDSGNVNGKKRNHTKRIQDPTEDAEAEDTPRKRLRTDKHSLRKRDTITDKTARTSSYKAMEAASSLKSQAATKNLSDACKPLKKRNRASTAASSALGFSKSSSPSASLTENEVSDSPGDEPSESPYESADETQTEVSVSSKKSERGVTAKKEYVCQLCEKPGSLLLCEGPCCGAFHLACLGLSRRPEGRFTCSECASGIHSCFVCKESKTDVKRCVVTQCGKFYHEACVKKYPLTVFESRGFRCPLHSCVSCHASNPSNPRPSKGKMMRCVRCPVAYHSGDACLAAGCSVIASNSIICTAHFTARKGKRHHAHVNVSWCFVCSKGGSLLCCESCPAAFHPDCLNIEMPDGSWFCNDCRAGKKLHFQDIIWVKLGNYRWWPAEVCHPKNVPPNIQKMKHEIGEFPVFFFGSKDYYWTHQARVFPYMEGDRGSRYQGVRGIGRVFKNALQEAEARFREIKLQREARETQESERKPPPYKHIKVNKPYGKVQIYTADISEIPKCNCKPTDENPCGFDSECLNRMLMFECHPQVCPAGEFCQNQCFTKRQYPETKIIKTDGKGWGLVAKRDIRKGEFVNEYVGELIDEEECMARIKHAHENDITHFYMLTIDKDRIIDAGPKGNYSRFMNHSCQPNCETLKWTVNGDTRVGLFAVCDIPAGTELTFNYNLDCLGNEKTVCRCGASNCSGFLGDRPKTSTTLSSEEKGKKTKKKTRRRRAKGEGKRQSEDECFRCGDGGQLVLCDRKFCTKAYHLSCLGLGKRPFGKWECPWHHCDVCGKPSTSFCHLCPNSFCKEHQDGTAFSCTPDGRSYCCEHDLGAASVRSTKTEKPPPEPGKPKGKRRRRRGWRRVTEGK", "UniProt P22303, sequence (whole entry, looked up)": "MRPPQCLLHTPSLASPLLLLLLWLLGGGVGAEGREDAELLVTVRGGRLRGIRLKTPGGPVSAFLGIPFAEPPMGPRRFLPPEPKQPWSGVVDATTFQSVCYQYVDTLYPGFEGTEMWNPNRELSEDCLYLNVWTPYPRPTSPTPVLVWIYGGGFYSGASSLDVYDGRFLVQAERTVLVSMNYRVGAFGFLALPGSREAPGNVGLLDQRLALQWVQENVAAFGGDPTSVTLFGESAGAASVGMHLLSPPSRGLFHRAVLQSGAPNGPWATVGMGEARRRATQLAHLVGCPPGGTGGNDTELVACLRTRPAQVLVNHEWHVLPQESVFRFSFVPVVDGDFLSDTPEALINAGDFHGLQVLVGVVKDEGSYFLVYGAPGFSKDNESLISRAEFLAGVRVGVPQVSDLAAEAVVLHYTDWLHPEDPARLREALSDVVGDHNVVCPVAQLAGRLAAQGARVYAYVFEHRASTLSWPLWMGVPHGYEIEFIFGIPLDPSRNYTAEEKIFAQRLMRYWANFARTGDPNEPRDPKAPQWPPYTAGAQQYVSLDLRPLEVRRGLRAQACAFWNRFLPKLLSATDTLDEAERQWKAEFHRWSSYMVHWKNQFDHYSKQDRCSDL", "UniProt O00748, sequence (whole entry, looked up)": "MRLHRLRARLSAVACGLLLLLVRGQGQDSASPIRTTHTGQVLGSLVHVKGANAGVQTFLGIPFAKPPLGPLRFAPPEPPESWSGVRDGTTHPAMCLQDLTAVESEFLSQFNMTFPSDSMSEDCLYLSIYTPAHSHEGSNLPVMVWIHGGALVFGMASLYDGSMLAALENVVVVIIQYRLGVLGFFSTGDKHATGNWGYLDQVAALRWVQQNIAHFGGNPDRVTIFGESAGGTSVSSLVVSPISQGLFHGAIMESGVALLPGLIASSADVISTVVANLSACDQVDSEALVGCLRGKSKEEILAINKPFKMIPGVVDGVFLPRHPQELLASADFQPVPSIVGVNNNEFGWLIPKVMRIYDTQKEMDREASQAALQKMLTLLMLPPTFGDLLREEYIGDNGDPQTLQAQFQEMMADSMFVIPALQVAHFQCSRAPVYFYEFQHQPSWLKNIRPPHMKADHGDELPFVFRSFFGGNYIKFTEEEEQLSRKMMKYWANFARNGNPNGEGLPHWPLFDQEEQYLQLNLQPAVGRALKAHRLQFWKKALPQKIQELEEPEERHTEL", "UniProt P35462, sequence (whole entry, looked up)": "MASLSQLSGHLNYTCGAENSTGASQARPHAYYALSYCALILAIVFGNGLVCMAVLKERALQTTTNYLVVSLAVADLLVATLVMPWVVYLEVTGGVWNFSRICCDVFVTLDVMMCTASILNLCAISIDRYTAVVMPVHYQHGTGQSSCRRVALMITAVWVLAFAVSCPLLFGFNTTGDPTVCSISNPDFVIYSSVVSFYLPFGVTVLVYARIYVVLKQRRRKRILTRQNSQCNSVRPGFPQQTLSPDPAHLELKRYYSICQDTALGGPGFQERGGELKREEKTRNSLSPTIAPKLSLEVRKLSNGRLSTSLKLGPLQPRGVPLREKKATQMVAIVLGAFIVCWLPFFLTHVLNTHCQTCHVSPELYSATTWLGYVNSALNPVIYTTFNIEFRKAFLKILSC", "UniProt P00915, sequence (whole entry, looked up)": "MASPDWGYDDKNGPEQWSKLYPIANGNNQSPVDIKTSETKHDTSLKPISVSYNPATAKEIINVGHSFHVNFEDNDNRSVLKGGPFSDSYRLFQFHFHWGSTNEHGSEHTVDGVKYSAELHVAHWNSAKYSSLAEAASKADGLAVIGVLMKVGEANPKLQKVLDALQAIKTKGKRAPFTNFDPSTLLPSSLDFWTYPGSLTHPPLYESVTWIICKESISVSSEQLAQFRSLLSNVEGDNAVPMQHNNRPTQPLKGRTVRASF", "UniProt P10275, sequence (whole entry, looked up)": "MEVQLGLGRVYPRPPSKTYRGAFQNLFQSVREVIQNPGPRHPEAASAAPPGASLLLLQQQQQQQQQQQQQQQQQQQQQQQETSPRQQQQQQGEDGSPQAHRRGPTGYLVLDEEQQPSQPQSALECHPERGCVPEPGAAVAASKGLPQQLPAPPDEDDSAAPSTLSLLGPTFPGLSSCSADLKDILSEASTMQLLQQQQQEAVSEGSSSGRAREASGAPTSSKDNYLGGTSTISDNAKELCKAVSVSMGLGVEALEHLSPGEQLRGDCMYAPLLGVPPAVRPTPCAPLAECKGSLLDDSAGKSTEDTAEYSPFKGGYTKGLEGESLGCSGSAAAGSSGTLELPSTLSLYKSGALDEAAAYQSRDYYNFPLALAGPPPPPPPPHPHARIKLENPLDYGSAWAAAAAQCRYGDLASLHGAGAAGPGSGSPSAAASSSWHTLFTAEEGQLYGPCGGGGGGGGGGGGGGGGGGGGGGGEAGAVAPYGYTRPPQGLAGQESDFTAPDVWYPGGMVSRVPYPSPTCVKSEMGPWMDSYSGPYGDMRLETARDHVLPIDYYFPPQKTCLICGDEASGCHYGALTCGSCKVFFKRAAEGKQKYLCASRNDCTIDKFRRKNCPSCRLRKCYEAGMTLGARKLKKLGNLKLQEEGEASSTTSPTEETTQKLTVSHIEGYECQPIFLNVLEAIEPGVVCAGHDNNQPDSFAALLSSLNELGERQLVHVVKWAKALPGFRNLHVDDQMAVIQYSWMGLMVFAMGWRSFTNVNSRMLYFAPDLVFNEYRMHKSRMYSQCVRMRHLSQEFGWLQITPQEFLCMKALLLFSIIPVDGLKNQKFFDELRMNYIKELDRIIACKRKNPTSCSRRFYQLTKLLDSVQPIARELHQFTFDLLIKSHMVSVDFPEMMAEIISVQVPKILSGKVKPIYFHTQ"}
{"SMILES": "CC(C)C[C@H](NC(=O)[C@H](CCC(N)=O)NC(=O)[C@H](CCCCN)NC(=O)[C@H](CCCNC(=N)N)NC(=O)[C@H](CCCCN)NC(=O)[C@H](CCC(=O)O)NC(=O)[C@H](CCCNC(=N)N)NC(=O)[C@H](CCCNC(=N)N)NC(=O)CNC(=O)[C@H](CC(N)=O)NC(=O)[C@H](C)NC(=O)[C@@H](N)Cc1ccc(O)cc1)C(=O)N[C@H](C(=O)N[C@@H](CC(C)C)C(=O)N1CCC[C@H]1C(=O)N[C@@H](CO)C(=O)O)[C@@H](C)O", "target": "Mapk1", "assay": "enzyme activity, inhibitor, fluorescence", "conditions": "pH 7.4", "IC50": "23800 nM"}
{"SMILES": "COc1cc(C[C@H](C)[C@H](C)Cc2ccc3c(c2)OCO3)ccc1O", "target": "Cocaine esterase (CES2, Homo sapiens, UniProt O00748)", "assay": "enzyme activity, inhibitor, fluorescence", "IC50": "1390 nM"}
{"SMILES": "CC12CCC3C4CCC(C#N)CC4CCC3C1CCC2O (stereo not drawn)", "target": "Androgen receptor (AR, Homo sapiens, UniProt P10275)", "assay": "nuclear translocation, antagonist", "IC50": "160 nM"}
{"SMILES": "CSCC[C@H](N)C(=O)N[C@@H](CC(=O)O)C(=O)N[C@@H](CC(C)C)C(=O)N1CCC[C@H]1C(=O)N[C@@H](Cc1ccccc1)C(=O)N[C@@H](CCC(=O)O)C(=O)N[C@@H](C)C(N)=O", "target": "Transcriptional regulator PlcR (Bacillus thuringiensis, UniProt A0ACM8Q0N2)", "assay": "reporter gene, inhibitor, lacZ reporter", "test system": "407 Cry−", "IC50": "482 ± 31 nM"}
{"SMILES": "CC(C)C[C@H](NC(=O)[C@H](CCCNC(=N)N)NC(=O)[C@H](CCCNC(=N)N)NC(=O)CNC(=O)[C@H](C)NC(=O)[C@@H](N)Cc1ccc(O)cc1)C(=O)N[C@@H](CCCCN)C(=O)NCC(=O)N[C@@H](C)C(=O)N[C@@H](CCCNC(=N)N)C(=O)N[C@@H](CCCNC(=N)N)C(=O)N[C@@H](CC(C)C)C(=O)N[C@@H](CCCCN)C(=O)N[C@@H](CC(C)C)C(=O)N[C@@H](CO)C(=O)N1CCC[C@H]1C(=O)O", "target": "Mapk1", "assay": "enzyme activity, inhibitor, fluorescence", "conditions": "pH 7.4", "IC50": "40900 nM"}
{"SMILES": "C=C1NC(=O)[C@H](C)NC(=O)[C@H](Cc2ccccc2)NC(=O)[C@H](CCCNC(=N)N)NC(=O)[C@H](CCSC)NC(=O)CNC(=O)[C@H]([C@@H](C)CC)NC(=O)[C@H](CCC(N)=O)NC(=O)[C@H]([C@@H](C)CC)NC(=O)[C@H](CC(=O)O)NC(=O)[C@H](Cc2c[nH]c3ccccc23)NC(=O)[C@H](Cc2c[nH]c3ccccc23)NC(=O)c2ccc(-c3nc(C(=O)OC)cs3)nc2-c2csc1n2", "target": "TNIK (Homo sapiens, UniProt Q9UKE5)", "assay": "enzyme activity, inhibitor, ADP detection", "IC50": "9100 nM"}
{"SMILES": "O=S(=O)(F)c1cccc(S(=O)(=O)Nc2ccc(C3CC3)c(F)c2)c1", "target": "GTPase KRas, with RAF (KRAS, Homo sapiens, UniProt P01116)", "assay": "RAF-KRAS interaction, inhibitor, NanoBRET", "test system": "HEK293T", "conditions": "24 h", "IC50": "47000 ± 8000 nM"}
{"SMILES": "Cc1nc2ccc(-c3ccc(OC(F)(F)F)cc3)cc2c(O)c1C#N", "target": "PFF0160c (Plasmodium falciparum, UniProt Q08210)", "assay": "enzyme activity, inhibitor, absorbance", "IC50": "2530 nM"}
{"SMILES": "Cc1[nH]c(C)c(S(=O)(=O)NC(C)(C)C)c1C(=O)N1CCCC1", "target": "DRD3 (Homo sapiens, UniProt P35462)", "assay": "β-arrestin recruitment, antagonist, PathHunter", "conditions": "added: dopamine EC80", "IC50": "> 100000 nM"}
{"SMILES": "O=S(=O)(N/N=C/c1ccc(OS(=O)(=O)c2ccccc2)cc1)c1cc(Cl)ccc1Cl", "target": "CA1 (Homo sapiens, UniProt P00915)", "assay": "enzyme activity, inhibitor, absorbance", "IC50": "30.5 nM"}
{"SMILES": "COC1c2cc(C(C)C)c(O)c(O)c2C23CCCC(C)(C)C2C1OC3=O (stereo not drawn)", "target": "ACHE (Homo sapiens, UniProt P22303)", "assay": "enzyme activity, inhibitor", "IC50": "4.81 nM"}
{"SMILES": "COC1=C(N)C(=O)c2nc(-c3nc(C(=O)O)c(C)c(-c4ccc(OC)c(OC)c4O)c3N)ccc2C1=O", "target": "NSD2 (Homo sapiens, UniProt O96028)", "assay": "enzyme activity, inhibitor, AlphaLISA", "IC50": "120 nM"}
